# Results from different studies.
# Parts stem from different laboratories: compare values within a part only. Substitutions count along the parent as printed.

# Study 1
# Target: RNA binding protein fox-1 homolog 2, RRM domain, GST-SBP tag (RBFOX2, Homo sapiens, UniProt O43251-10, residues 100-194)
# Method: RNA Bind-n-Seq
# Form: RNA
# Sample: in vitro
# Concentration: 365 nM
# Setting: natural RNA segment, single round, ends assumed
# Reference: no-protein control
# Direction: higher = stronger binding
# All sequences stand within: GGGAGUUCUACAGUCCGACGAUC … UGGAAUUCUCGGGUGCCAA
# Residues (chain): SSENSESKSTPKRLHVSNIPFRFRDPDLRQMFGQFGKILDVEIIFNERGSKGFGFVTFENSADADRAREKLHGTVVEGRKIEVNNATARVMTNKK
Oligonucleotide,RBNS enrichment (R)
UCCUCGCCAGGGAUCUGGGUGGGACAGUCACACCCACGGCCUGCUACCCACCAGGUUGUACUUAACGCAAUCAGAAGGGGUUCAUGGCAAUAUAACAGUUAAUGAACUUG,0.273
GAGUUUUCUUCCAAAAGCACUGUUUCCAGUCUGAGUAGGAGCUACCAGCCUGUGGCAAUCAGCAGGGAAAGACAGGUGCUCCUGUCAUAGGGGCUUGAGCUACCACAGCU,0.302
ACUCCACCGUCAGCUGUAACCCUCACCCACAGCCCCUGCUGGGCCCACCACCUGUCCGUCCCUGUCCCCUUUCCUGCUGGCAGGAGCCGGCUGCCUACCAGGGGCCUUCC,0.461
GCCUCUCCCCAUGGCUGGGGCAGCCCCGCCCCCUCCCUGGGUGCAUCUGCCCUCUGAGUUCUUUCUGUGUGAUCUAUUUUUUAAGAAGAGUUUGUAUUAUUUUUUCAUAA,1.52
UCCACAAGAAGCAUGGGCACCCAGCCAAACUUGAACCUGGAAGGGAGGGUUCCCGGCCUGCAGGUGCUCUUUCCUCUUGGUCCCAAGCAUCUGUGCAGGGUCGUGGGAGC,2.39
AUGGCAUCUUUUCUGCGCGGUGGGGCUCCCGGAGAACUGGGCAUGCGCAUUGUGCCGUGGGGCUUAGGAUGAGUUGGACACGCGCACUGACAAUGCCUAGGACUGCCUUA,2.32
UAGUUAUAUUCCUACAAUACAAUUUUAAAAUUGUCUUUUUAUAUUAUAUUUAUGCUUCUGUGUCAUGAUUUUUUCAAGCUGUUAUAUUAGUUGUAACCAGUAGUAUUCAC,1.8
GCCUGGUCUGUAUUUAAAGCUUUUGAGACCCAAUAAAAUAGUACCUGCUGUCUGCAGCCUUACUGUCGUGGUGGAGCCAGAACACUGUGUUCCUGACCCCAGCCAGGGGG,0.312
AGAAGGAAGAGUGAGGGGUCUGUCCAUGGGGUGGCAGUGAUUUCACACCCGCCUUUCUUGAAUGGCUUCGUGUUACUCAGCCGUGCCCUGGCAGGAAUGGAACUCCAUCA,0.356
AAACAUCUGAAGUAUGGGACGCCCUGGCCGUUCCAUCCAGUACUAAAUGCUUACCGUGUGACCCUUGGGCUUUCAGCGUGCACUCAGUUCCGUAGGAUUCCAAAGCAGAC,0.45
UGAGCACCGGAGCGCCUGGCUGCCUGCCAAGGAAGUGCAAUUGCAUAAAAACAGAAAGAACAACGCCCUGGAGCCAAUCUUCAAGAAAGGAAUUUCCAAAGGAUAAUAUU,0.402
GUAGGUGACUCUGCAGCCUGCCAGCGCCCGCCCUCUUUCUACACAGCAGAGUGUGCAUGGCAAGGAAAUGAGUCACCUCCUUGGGGGAUGGUGCUGUUUUUAUGAAAACC,0.35

# Study 2
# Target: CCNB1, cyclin fold, Cln2 fusion (human)
# Method: yeast growth competition, sequencing
# Sample: yeast
# Setting: strong parent motif
# Reference: not given
# Direction: higher = stronger binding
# Parent: MICAL3 docking peptide (human); LQLRRQLSFSEDS; partner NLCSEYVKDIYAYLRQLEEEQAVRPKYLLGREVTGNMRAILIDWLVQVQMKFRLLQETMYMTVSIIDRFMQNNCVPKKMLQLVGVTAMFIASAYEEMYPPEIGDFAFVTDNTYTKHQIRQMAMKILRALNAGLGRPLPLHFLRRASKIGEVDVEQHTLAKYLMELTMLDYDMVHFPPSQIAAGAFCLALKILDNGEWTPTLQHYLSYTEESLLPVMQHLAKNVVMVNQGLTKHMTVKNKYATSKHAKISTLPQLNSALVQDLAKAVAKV
Substitution,normalised enrichment score
LQHRRQLSFSEDS [L3H],0.507
LQSRRQLSFSEDS [L3S],0.612
LQLRRQYSFSEDS [L7Y],0.065
LQLRDQLSFSEDS [R5D],-0.0571
LQLRRQLSCSEDS [F9C],0.294
LQLRRQLSFSNDS [E11N],3.25
LQLRRQLSFSENS [D12N],4.11
LQLRRWLSFSEDS [Q6W],0.823
LQLRRNLSFSEDS [Q6N],2.06
LQLRRQLSFSGDS [E11G],3.58
LQRRRQLSFSEDS [L3R],0.57
LQLRRQLSLSEDS [F9L],0.376
LQLRRQLTFSEDS [S8T],2.92
LQLRRQLSPSEDS [F9P],0.0506
LQLRSQLSFSEDS [R5S],0.161
LQIRRQLSFSEDS [L3I],5.34
LQLRRQLSFFEDS [S10F],1.48
LQLRRQLAFSEDS [S8A],1.16
LQLRRQLQFSEDS [S8Q],1.69
LQLRVQLSFSEDS [R5V],0.585
LQQRRQLSFSEDS [L3Q],0.353
LQLRRCLSFSEDS [Q6C],5.32
LQDRRQLSFSEDS [L3D],0.0941
LQLRAQLSFSEDS [R5A],0.546
LQLRRQLSKSEDS [F9K],0.0723

# Study 3
# Target: Interferon regulatory factor 7, full length, phosphomimetic (IRF7, Homo sapiens, UniProt Q92985, residues 1-503, S101K/S471D/S472D/S475D/S476D/S477D/S483D/S484D/S487D)
# Method: protein-binding microarray
# Form: double-stranded DNA, one strand shown
# Sample: in vitro
# Concentration: 250 nM
# Setting: 60-bp whole probe
# Together with: salmon DNA 0.4 mg/ml
# Reference: random background probes
# Direction: higher = stronger binding
# All sequences stand within: GCCTAGCAC … GTCTTGATTCGCTTGACGCTGCTG
# Construct (chain): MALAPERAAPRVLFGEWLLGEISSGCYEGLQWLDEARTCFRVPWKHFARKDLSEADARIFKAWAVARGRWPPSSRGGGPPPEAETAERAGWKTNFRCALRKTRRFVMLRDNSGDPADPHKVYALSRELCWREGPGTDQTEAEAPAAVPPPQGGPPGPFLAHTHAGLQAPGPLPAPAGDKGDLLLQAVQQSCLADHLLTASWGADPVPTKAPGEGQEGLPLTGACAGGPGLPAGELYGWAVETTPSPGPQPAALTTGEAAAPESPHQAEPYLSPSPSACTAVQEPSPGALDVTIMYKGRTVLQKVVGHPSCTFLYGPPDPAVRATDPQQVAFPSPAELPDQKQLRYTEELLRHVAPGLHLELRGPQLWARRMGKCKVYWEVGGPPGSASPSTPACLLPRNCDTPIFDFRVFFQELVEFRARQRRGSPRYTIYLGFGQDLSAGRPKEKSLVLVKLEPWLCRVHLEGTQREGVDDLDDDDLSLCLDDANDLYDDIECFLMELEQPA
Oligonucleotide,log fluorescence
GACGGTCTCGGTATCGGGTCGTGCTAG,2.72 z-score
CTAGGACTGGACACTGGGTTAGTGCTA,-0.468 z-score
TTAGAACTTGGGACTGGATTAGTGCTA,-0.146 z-score
AACGGTATCGGTATCGGGACGTGCTAG,1.53 z-score
GACGGTATCCTAATGCTGACGTGCTAG,0.135 z-score
GACGGACTCGGTATCGGGACGTGCTAG,1.18 z-score
GACGGTTTCGACACCGGGGACGTGCTA,3.33 z-score
TTAGGTCTTGGTATCGGTTAGTGCTAG,1.34 z-score
TTAGATTTCAGTTTCGGTTAGTGCTAG,9.15 z-score
TCATTTTTCATTATTGTACTGTGCTAG,1.46 z-score
GACGGTTTCCTTATCCAGACGTGCTAG,3.06 z-score
GACGATCTCGGACTGGAGACGTGCTAG,-0.305 z-score
GACCATATCGGGTATCGAGACGTGCTA,0.221 z-score
GACGTTTTCGACTATCGGGACGTGCTA,1.48 z-score
GAAGGACTGCTTCTCCTGACGTGCTAG,0.498 z-score
TCACATTTCCTTTACATACTGTGCTAG,1.68 z-score

# Study 4
# Target: Fragile X messenger ribonucleoprotein 1, C-terminal low-complexity region (Fmr1, Mus musculus, UniProt P35922)
# Method: RNA Bind-n-Seq
# Form: RNA
# Sample: in vitro
# Concentration: 200 nM
# Setting: whole 134-nt RNA, ends assumed
# Together with: 150 mM LiCl
# Reference: input library
# Direction: higher = stronger binding
# Library: 7-deaza-guanosine replaces G
# All sequences stand within: GGGAGUUCUACAGUCCGACGAUC … UGGAAUUCUCGGGUGUCAAGG
Oligonucleotide,log2 enrichment
GCAGGAAGGAAAAACAAAUGGAAAUGCUUCGGAUAGUGGCAGGGGUGGGGGUUGCUAAGGAAAGGGUGGGAUGGGAGUGGGUAAAGAGUU,1.56
AAGUCCUGUGCUACACAUCGUAUGUACCGAAUCGGGUGGGUUUUUGGGUUUUUGGGAAAGUAUUAUGUUACGCCGUUCGGAUCUGCACUU,-1.47
GCAGGAAGUAACAACAAAUGGAAAUGCUUCGGAUAGUGGCAGGGGUGGGGGUUGCUAAGGAAAGGGUGGGAUGGGAGUGGGUAAAGAGUU,1.42
UCAAGUCCUGUGCUACACAUCGUAUGUACCGAAUCGGGCCCGGCCCGGCCCGGGGAAAGUAUUAUGUUACGCCGUUCGGAUCUGCACUUC,-1.69
UCAAGUCCUGUGCUACACAUCGUAUGUACCGAAUCGGGAAAGGGAAAGGGUGGGAAAGUAUUAUGUUACGCCGUUCGGAUCUGCACUUCC,-1.23
UGGGAGGUGGAUUUUGUUUAUUUUUUUAGCUCAUUUCCAGGGGUGGGAGUUUUUUUUUAAUAUGUGUCAUGAAUAAAGUUGUUUUUGAAA,0.516
CAAGUCCUGUGCUACACAUCGUAUGUACCGAAUCGGGCCCGGGGCCCGGCCCGGGGAAAGUAUUAUGUUACGCCGUUCGGAUCUGCACUU,-2.55
AGUCCUGUGCUACACAUCGUAUGUACCGAAUCGGGGAAAGGGGUGGGGUUUUUGGGGAAAGUAUUAUGUUACGCCGUUCGGAUCUGCACU,-0.929
GCAGGAAGUAAAAACAAAUGGAAAUGCUUCGGAUAGUGGCAGGGGUGGGGGUUGGUAAGGAAAGGGUGGGAUGGGAGUGGGUAAAGAGUU,1.64
CACAGACAACACGCACCCACACAGACACAGAGGGAAGGGGUUGGGAUGGGGACAGGGUGCACAGCAGGGCGGGGUAGGACCCCAGCCACU,-0.436
UCAAGUCCUGUGCUACACAUCGUAUGUACCGAAUCGGGAGGGAAAAAGGGAGGGAAAGUAUUAUGUUACGCCGUUCGGAUCUGCACUUCC,-0.506

# Study 5
# Target: ABI1, truncated, D143A, DHFR fusion (Arabidopsis thaliana)
# Method: DHFR PCA, deep sequencing
# Sample: yeast
# Setting: methotrexate growth selection, single substitutions
# Together with: (+)-ABA 200 µM
# Reference: wild-type fitted maximum
# Direction: higher = stronger binding
# Parent: PYL1, truncated, DHFR fusion (Arabidopsis thaliana); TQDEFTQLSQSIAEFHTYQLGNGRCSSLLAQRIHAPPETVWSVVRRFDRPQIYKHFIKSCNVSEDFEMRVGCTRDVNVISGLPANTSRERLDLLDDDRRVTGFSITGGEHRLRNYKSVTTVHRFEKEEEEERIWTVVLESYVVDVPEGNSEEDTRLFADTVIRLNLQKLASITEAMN; partner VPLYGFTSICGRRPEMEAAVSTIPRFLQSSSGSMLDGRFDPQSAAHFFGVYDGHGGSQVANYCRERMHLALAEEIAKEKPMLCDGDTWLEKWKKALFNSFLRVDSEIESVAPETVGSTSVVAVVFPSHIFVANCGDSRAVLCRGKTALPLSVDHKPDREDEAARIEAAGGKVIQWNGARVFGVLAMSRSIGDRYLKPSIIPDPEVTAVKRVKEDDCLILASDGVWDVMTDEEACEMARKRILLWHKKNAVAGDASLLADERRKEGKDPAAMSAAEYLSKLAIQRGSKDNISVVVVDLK
Substitution,relative binding score [%]
K116W,-4.49
F157D,6.45
E125T,102
N22L,101
F5Y,85
I33L,44.4
S11V,102
D144L,52.1
A170L,63.9
L29D,9.8
N77I,104
I133H,107
E14N,91.6
L169G,4.07

# For quick reference, copied from above (study 3):
Oligonucleotide,log fluorescence
GACGATCTCGGACTGGAGACGTGCTAG,-0.305 z-score
GACCATATCGGGTATCGAGACGTGCTA,0.221 z-score
GACGTTTTCGACTATCGGGACGTGCTA,1.48 z-score
GAAGGACTGCTTCTCCTGACGTGCTAG,0.498 z-score
TCACATTTCCTTTACATACTGTGCTAG,1.68 z-score
